Experimental data from different studies.
Every numbered part comes from another study and shows a few of its results, in no order. Positions count from the first letter of the parent shown.

Study 1 — technique: aptamer microarray, sandwich; form: DNA with 2'F-ANA; matrix: in vitro; tested at: 200 nM; with: Cy3 exosite-II aptamer, 400 nM; direction: higher = stronger binding; measurement: mean fluorescence intensity; strand: GGTTGGTGTGGTTGG
Target: Prothrombin, mature alpha-thrombin (F2, Homo sapiens, UniProt P00734)
Setting: whole 15-mer aptamer, many near background
2'F-ANA at 1 3 5 7 10 11 12 14 15: 51.6 a.u.
2'F-ANA at 1 5 7 9 12 13 15: 69.6 a.u.
2'F-ANA at 1 4 6 8 9 10 14 15: 49.8 a.u.
2'F-ANA at 1 3 9 10 11 12 14: 61.4 a.u.
2'F-ANA at 3 4 10 12 13 14 15: 195 a.u.
2'F-ANA at 3 4 6 8 10 12 14: 178 a.u.
2'F-ANA at 2 3 6 7 8: 835 a.u.
2'F-ANA at 4 5 6 11 14: 43.1 a.u.
2'F-ANA at 2 3 6 9 11 13 14: 338 a.u.

Study 2 — target: CCNB2, cyclin fold, Cln2 fusion (human); technique: yeast growth competition, sequencing; matrix: yeast; setting: strong parent motif; reference: not given; direction: higher = stronger binding; measurement: normalised enrichment score
Starting sequence: PKMYT1 docking peptide (human); SFEPRNLLSLFED
N6Q: 0.129
L8D: -0.299
R5L: 1.42
P4M: 0.404
L7S: -0.406
S9T: 1.3
S9A: 1.51
F11I: 0.153
E12G: -0.0101
F11R: -0.529

Study 3 — technique: universal PBM; form: double-stranded DNA, one strand shown; matrix: in vitro; tested at: 600 nM; direction: higher = stronger binding; measurement: E-score
Target: Sal-like protein 4, full length isoform A (SALL4, Homo sapiens, UniProt Q9UJQ4, residues 1-1053)
Sequence of UniProt Q9UJQ4 (whole entry, looked up): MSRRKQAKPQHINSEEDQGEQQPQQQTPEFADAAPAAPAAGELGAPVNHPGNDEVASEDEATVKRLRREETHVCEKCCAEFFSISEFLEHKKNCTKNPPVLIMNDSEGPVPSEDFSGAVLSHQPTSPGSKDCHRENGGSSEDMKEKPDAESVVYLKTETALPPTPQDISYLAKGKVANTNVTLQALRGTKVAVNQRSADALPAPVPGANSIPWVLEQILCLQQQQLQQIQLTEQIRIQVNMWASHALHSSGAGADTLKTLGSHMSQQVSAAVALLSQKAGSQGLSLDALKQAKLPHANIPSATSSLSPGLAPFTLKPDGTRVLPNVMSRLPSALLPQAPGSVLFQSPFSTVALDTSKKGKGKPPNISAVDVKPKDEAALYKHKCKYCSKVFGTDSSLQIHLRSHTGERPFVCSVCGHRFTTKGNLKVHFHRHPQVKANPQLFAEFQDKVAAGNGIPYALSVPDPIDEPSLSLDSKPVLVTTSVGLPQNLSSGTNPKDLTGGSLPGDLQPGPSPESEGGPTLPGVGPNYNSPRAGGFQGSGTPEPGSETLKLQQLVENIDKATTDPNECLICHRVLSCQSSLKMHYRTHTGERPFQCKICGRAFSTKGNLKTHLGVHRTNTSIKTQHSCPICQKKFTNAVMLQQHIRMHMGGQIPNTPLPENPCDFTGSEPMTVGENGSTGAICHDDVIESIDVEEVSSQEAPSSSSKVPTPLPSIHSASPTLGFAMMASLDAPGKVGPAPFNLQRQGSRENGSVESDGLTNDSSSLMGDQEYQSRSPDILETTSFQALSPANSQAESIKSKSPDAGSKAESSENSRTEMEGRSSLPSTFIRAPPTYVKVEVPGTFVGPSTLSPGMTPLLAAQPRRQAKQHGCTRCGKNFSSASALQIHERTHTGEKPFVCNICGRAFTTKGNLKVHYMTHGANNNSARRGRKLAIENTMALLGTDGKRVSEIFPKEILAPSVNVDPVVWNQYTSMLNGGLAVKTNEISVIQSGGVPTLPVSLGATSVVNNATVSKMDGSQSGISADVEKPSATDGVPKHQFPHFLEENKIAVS
Setting: 8-mer, flanks averaged, mean of replicates
AATGGCAC: -0.00249
TGGGCCCA: -0.26
AAGGTACC: -0.216
TAAGCTTA: 0.2
CCCTAGCC: -0.242
ACAGAAAC: 0.0644
ATTGCGAA: 0.111
AATGAGTG: 0.215
CGTCGTCA: -0.136
CGTACTTA: 0.103
ACGAGATC: -0.057
CAAGTGCA: -0.00336
AACGCTTA: -0.0484
CTGTGGCA: -0.11
TAATACGA: 0.278

Further values, each from its own experiment
PhoQ, residues 284 288 289 292 302 303 SCKMEA
fold induction (PhoP, residues 12 14 15 18 19 NQCAL (Escherichia coli, UniProt P23836); Sort-seq, item: YFP reporter; E. coli; PhoQ-PhoP variant library, with: 10 µM Mg2+; reference: high Mg2+ state, higher = stronger signaling): 13.4
